# Earlier results as cited in several papers.
# Compare with care: the assays were run in different laboratories. ± marks the error that the study gave.
# UniProt P06756, sequence (whole entry, looked up): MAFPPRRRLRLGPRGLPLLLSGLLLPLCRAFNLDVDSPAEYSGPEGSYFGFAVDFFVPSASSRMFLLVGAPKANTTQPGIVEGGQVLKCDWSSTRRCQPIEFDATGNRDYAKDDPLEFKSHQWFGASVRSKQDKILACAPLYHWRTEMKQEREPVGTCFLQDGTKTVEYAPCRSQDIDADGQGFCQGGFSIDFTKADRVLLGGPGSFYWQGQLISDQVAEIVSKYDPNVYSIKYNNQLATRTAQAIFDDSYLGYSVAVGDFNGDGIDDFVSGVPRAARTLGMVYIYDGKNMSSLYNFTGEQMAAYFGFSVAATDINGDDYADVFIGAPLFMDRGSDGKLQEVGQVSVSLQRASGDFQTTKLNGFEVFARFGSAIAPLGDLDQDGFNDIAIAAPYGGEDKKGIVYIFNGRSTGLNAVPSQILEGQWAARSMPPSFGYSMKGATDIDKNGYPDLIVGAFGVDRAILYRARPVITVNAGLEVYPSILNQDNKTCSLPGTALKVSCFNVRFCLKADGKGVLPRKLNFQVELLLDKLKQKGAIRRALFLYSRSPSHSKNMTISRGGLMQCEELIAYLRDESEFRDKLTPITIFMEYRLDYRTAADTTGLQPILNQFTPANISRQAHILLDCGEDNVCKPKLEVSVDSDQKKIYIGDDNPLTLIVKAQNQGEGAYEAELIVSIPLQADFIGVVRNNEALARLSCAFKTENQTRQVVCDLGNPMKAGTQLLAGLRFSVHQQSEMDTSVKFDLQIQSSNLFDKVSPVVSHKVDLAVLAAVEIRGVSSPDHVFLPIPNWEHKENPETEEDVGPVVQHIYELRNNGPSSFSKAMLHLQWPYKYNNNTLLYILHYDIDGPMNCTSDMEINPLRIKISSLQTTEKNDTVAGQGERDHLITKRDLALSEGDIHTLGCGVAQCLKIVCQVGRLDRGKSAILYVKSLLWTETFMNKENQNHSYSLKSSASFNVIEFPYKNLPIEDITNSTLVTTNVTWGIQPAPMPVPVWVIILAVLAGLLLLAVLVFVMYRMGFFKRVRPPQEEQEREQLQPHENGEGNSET
# UniProt P05106, sequence (whole entry, looked up): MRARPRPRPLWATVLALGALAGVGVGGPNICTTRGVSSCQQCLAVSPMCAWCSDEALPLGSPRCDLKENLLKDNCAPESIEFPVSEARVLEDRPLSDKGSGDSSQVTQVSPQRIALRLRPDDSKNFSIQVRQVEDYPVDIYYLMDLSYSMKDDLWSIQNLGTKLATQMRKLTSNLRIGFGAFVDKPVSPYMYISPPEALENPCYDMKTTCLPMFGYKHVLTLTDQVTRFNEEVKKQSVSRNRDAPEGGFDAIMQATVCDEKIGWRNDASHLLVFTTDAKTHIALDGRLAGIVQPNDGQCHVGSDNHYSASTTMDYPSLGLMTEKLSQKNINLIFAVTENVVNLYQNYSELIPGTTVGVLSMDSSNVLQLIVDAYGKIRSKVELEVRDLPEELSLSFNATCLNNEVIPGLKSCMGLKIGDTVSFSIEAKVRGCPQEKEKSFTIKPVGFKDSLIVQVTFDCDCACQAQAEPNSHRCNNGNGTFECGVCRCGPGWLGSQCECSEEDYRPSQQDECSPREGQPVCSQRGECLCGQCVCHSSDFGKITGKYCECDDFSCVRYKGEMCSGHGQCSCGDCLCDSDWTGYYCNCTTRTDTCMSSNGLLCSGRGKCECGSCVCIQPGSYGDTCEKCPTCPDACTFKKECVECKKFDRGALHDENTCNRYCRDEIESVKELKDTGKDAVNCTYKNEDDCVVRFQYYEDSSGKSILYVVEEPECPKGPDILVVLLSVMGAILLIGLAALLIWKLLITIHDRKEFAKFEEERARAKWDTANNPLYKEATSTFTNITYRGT
Molecule,target or system,read-out,technique,measurement,value
CC(=O)C1=C(C)N(c2cccc(C(F)(F)F)c2)C(=O)N[C@H]1c1ccc(C#N)nc1,ELANE,,biochemical,IC50,> 2000 nM
trastuzumab Fab,HER2,,,Kd,0.5 nM
calcitonin gene-related peptide,,,radioimmunoassay,plasma half-life,6.9 to 26.4 min
fluorescein-c(RGDyK),"Integrin alpha-V/beta-3 (Homo sapiens, UniProt P05106+P06756)",binding,,Kd,0.5 ± 0.1 nM
"RING domain of UHRF1 (Homo sapiens, UniProt Q96T88)",UBE2D (UniProt P51668),,Kd,Kd,75000 nM

# Repeated from above:
Molecule,target or system,read-out,technique,measurement,value
trastuzumab Fab,HER2,,,Kd,0.5 nM
